Published values pooled from the literature.
Numbered parts are unrelated; each lists some results of a single study.

Set 1 — technique: RNA Bind-n-Seq; form: RNA; medium: in vitro; tested at: 100 nM; relative to: input RNA pool; direction: higher = stronger binding; endpoint: bound/input enrichment
Target: RING finger protein unkempt homolog, zinc fingers 1-6, SBP tag (UNK, Homo sapiens, UniProt Q9C0B0, residues 30-357)
Sequence of UniProt Q9C0B0 (30-357, looked up): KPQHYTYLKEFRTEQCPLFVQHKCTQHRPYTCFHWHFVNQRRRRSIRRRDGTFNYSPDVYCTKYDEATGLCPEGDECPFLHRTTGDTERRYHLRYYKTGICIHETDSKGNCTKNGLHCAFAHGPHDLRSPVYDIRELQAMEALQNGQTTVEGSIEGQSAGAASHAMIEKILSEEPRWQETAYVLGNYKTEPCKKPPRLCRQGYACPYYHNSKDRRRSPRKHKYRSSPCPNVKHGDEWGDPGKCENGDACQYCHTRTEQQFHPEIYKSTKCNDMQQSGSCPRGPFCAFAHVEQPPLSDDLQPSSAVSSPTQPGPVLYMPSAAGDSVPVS
Notes: RNA with constant flanks, vertebrate orthologous sites, ends assumed
Shared flanks, not repeated: GGGAGUUCUACAGUCCGACGAUC … CAACAGAGGAUUGAGCAUCA
Oligonucleotide = AAAGGAAUAAUCCUGGCUGCUUUUUGUGAGGUAAAGUGUCCCUUGACAUAUGGUUGAUACCAGCACCAUUAUCCCAAAUAUGUUUUUCAACGUUUCAUUUCUUUCAUGUAGUCUUUAAAA; result = 0.794 ratio
Oligonucleotide = CUAUGAUGUCAAACAUAUCUACCCAAAGAACUAACAUUUUAUAAAUAUUACUAGUUUAGCUGCAGUCUAAGUAUUAAUUAUGACAAACAGCCAAAGUGAAUUUAAGAGUGUAAGUAAGAC; result = 0.305 ratio
Oligonucleotide = AAUCAGUAGAACUACAUAAUACUAAAGUUGCAGUUGAAAGGAUAUCCAAGUAUGUGUUGGUAGUUACUAAAAGAAUUAUAGCUGUUAUUGCCUUGUAUUUAUAGCCCUGUUUCAGGUUUC; result = 0.765 ratio
Oligonucleotide = GUGCAAGGAAAUUAUUCCAACUAGUGAAUUUAUUAACAGUAAGUUAACAGCAAAAGCCAAUAGGCAACUUCAAGAUCCUUUAGUAAUCAUGACAGGAAACAUCCCAACGUGGCUUACUGA; result = 1.13 ratio
Oligonucleotide = CUGUUGUGUGAGACAUGUCUAUCCAGAGAAGUAACAUUCUAUAAAUAUUAUCAGAUAAUUUAGCUAGAGUAUUUUUAGGUAUUAAAUUAUAUGUCAAGCAUUUAAAGUGAAUUUGAGAUU; result = 0.74 ratio
Oligonucleotide = GUCUUCUGGUACCACUCGAUGUACCAAUACUCAUCCUUUUUUCAUUAUACCAACUAUCGCUAGAAGUAGGAGUUCAAUAUUUUUAAAAGUUUUACAUUGCUGUAUAUUCAAAAUUUUCAA; result = 1.39 ratio
Oligonucleotide = CCUACAAUAAUGAAAACCUACAGGAAUUUUUUUAUUUUUCAUUUUCCCCUUAGGCAUAUUUAGUAUUUUUCCCCCAGGCAGAUCAUUCUGAGUGUGCGAGUGUGUGUGCACAUGUUACAA; result = 2.5 ratio
Oligonucleotide = AUAAAGUGCAUAUCAAAUGCUGGAUAUCGUAUUAAACCAUCAUUUAGGGUAGAUGUUAAUUUGUUAUAAUUAAGUUACAAAUAGGUUUCCUUAAACCAGAGAUGCACUGCCCUUGUCUGA; result = 0.353 ratio
Oligonucleotide = AAAUUUAUUUCAUGCCCUGGACUCCCUAUCGUACUGAUACUUUAAUAGAAUAUGCUUCUUUAGAAGAUUUCCAAAAUAGUCGCCAAACAACGACAUAUAAACUUCCAAAUCGAGUAGAUG; result = 1.07 ratio
Oligonucleotide = UAUUGUAUGUAGAGAAAAAGUUCGAUUGGCCACAUUGUGAAAUUCCCUAGCAAAUUUAUUUAGAAUCUUAAUUUUUCUAUUUCAGGGUCACCGUAGCAGGGUGCAUUUCAUGCCUUAUUU; result = 6.68 ratio
Oligonucleotide = AAGCCCUGUGAAGGUCUACUGACCACUCACUAUCGUCUGGUAUCUGUAAACACUUCUGUUUAGUCCUUUCAUUGUAUAAUUGAUGUUCUUUACAACUGUCGAUGUAAAACAGGGCUUAUG; result = 0.869 ratio

Set 2 — technique: RNA Bind-n-Seq; form: RNA; medium: in vitro; tested at: 200 nM; notes: whole 134-nt RNA, ends assumed; with: 150 mM LiCl; relative to: input library; direction: higher = stronger binding; endpoint: log2 enrichment; all molecules: 7-deaza-guanosine replaces G
Target: Fragile X messenger ribonucleoprotein 1, C-terminal low-complexity region (Fmr1, Mus musculus, UniProt P35922)
Shared flanks, not repeated: GGGAGUUCUACAGUCCGACGAUC … UGGAAUUCUCGGGUGUCAAGG
Oligonucleotide = AGUCCUGUGCUACACAUCGUAUGUACCGAAUCGGGUUUUGGGGUUUUGGUUUUGGGGAAAGUAUUAUGUUACGCCGUUCGGAUCUGCACU; result = -1.77
Oligonucleotide = UAAGAAGGAAAUUGAGAGGAGAAAAACUGGAAAAGAAAUGUUGGAUUAUAAAAGAAAACAAGAAGAAGAAUUAACAAAAAGAAUGCUGGA; result = -0.873
Oligonucleotide = UCCUGUGCUACACAUCGUAUGUACCGAAUCGGGAAAAAAGGAAAAAAGGAAAAAAGGGGAAAGUAUUAUGUUACGCCGUUCGGAUCUGCA; result = -1.01
Oligonucleotide = CAAGUCCUGUGCUACACAUCGUAUGUACCGAAUCGGUUUUUGGAGGAAAAAAAGGAAAGUAUUAUGUUACGCCGUUCGGAUCUGCACUUC; result = -1.19
Oligonucleotide = AGUCCUGUGCUACACAUCGUAUGUACCGAAUCAAACCCAAACCCCCAAACCCCCAAAAAAGUAUUAUGUUACGCCGUUCGGAUCUGCACU; result = -0.0645
Oligonucleotide = CUCAAGUCCUGUGCUACACAUCGUAUGUACCGAAUCGGUUUGGAAAGGUUUGGAAAGUAUUAUGUUACGCCGUUCGGAUCUGCACUUCCA; result = -0.777
Oligonucleotide = GUCCUGUGCUACACAUCGUAUGUACCGAAUCGGGAAAAAGGGGAAAAAGGAAAAAGGGAAAGUAUUAUGUUACGCCGUUCGGAUCUGCAC; result = 0.332
Oligonucleotide = CAAGUCCUGUGCUACACAUCGUAUGUACCGAAUCGGGAAAGGAAAGGGAAAGGGGAAAGUAUUAUGUUACGCCGUUCGGAUCUGCACUUC; result = -0.298
Oligonucleotide = UGGGAGAUGGAUUUUGUUUAUUUUUUUAGCUCAUUUCCAGGGGUGGGAAUUUUUUUUUAAUAUGUGUCAUGAAUAAAGUUGUUUUUGAAA; result = -0.0933
Oligonucleotide = AAGUCCUGUGCUACACAUCGUAUGUACCGAAUCGGGGUGGGGUGGGGAAAAAGGGGAAAGUAUUAUGUUACGCCGUUCGGAUCUGCACUU; result = -1.14
Oligonucleotide = GCAGGAAGUAAAAACAAAUGGAAAUGCUUCGGAUAGUGGCAGGGGUGGGGGUUGCUAAGGAAAGGGUGGGAUGGGAGAAAGUAAAGAGUU; result = 1.25

Set 3 — technique: RNA Bind-n-Seq; form: RNA; medium: in vitro; tested at: 365 nM; relative to: no-protein control; direction: higher = stronger binding; endpoint: RBNS enrichment (R)
Target: RNA binding protein fox-1 homolog 2, RRM domain, GST-SBP tag (RBFOX2, Homo sapiens, UniProt O43251-10, residues 100-194)
Notes: natural RNA segment, single round, ends assumed
Shared flanks, not repeated: GGGAGUUCUACAGUCCGACGAUC … UGGAAUUCUCGGGUGCCAA
Residues (chain): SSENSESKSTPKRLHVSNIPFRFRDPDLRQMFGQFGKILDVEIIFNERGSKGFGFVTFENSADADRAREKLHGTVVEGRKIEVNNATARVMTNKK
Oligonucleotide = CCCAGGAACUCGGAGACUGGCACAGCUGCUUUGUCUGCCAGUGCCGUGUGUUGUCAUGUCACUCACCCCAAGCACCUGCUGGCUGCUGGAAGCAUACCCCAAGACCCCAA; result = 0.438
Oligonucleotide = UCCAGGGCUGCCCCUUCCGUUAUCCACCUCAUGAAUCACUGGCUGCAAUAAACAUCGAAGCACAGGAGCCUGUUUCCAGUGAGAGCUUUGCACAGGGCUCUUACCUUUGG; result = 0.465
Oligonucleotide = AAAAGAAUCCCUUGAGCAUCUCCCUAGGAGUCCACCCCCUGGAUUCCUUUACUCAAGGGUUUGGGGAGCAGCCCACAGGAGCGCUGCCUCCAUUUGACAUGCCUUCGGGG; result = 0.366
Oligonucleotide = CAAUAUACUCUGAUCUACCCCUUAAUAUUGAAUAAAAGAACCAAGAAGUUCUUUCAGAUCACCAAUAUAAAAUUGUUUCCCAAAUAUAUGUGUUUAUCAAAUUUUGACAG; result = 0.518
Oligonucleotide = AGAAUUUAUAAAUCACAUCUCAUCAAUACUAACAAAUGACAUUUUGAAAGGAAAGAUUGGGUUGCAUAGUCAUAGUACAUGAAUCCAAUCAAAGAUGAUACAAUAUUUCC; result = 0.336
Oligonucleotide = AAACUAUCCUGGACACUCCCUCCUGCUUCCACCAAUUUUUUUCUCACCCCCUUUUCAAAAAUUGAAAACUCUAUGAGUGUCUUUUUGAGACCAUAAAGCAGACUUUAGUA; result = 0.801
Oligonucleotide = AUUAAAGGAAAGAAAAAGCAUCUCAAAUGAGUGUAAGUUGUUCUUGAGAAAAAAAUGUAUCAGACUUUUAUGAUUUGAAUGAAAUGUAUUAUAGAAAAAAAUAAACACUU; result = 20.6
Oligonucleotide = UCGUGCACUUUGAAUACCAAUCAGGUGUUUUCUGUGCUACUAGUUGUCACGUUGCAUUCAUGUUCACCUCCUGAUUUAAGUAUCUCGGGUGUGCCCAGCCACUAAAGCAC; result = 0.223
Oligonucleotide = GAUGGGGGGGACGCUGCUGGUAUUCGGGUUGGGCGUUUCCCAAUAAACCACCAAUCUUCAUAUUGUGCCUUCAUCUCCCUCCAAAAGCCUCUUGGGACAGUGGCCAGUCA; result = 0.335
Oligonucleotide = UGUUUUCAAGUGUGGGGAGGAUAUGAAAAUGUUCUGUUCUCACUUUUGGCUUUAUGUCCAUUUUACCACUGUUUUUAUCCAAUAAACUAAGUCGGUAUUUUUUGUACCUU; result = 0.238
Oligonucleotide = CCUGGGGCUUGGGUGCCACGUGCUGAGAUUGCAUAGUCAAAACAGCCAUUUUUGCCAACAAUAGCUUGUGGCUCCCCACAUUUUCCUACCCUGCACUCAAGGGCCAGACC; result = 0.432
Oligonucleotide = UCCUCACUCUUCCACUGACCCACUGUGUGACCUGAAGAGAGCCCUGCCCUCUCUGAGCCUCAGUGUUUGGAGGGCCCCAAAGAAUUCCCGUCUUGUGGGGGAGUUUUCUU; result = 0.291

Set 4 — technique: competition protein-binding microarray; form: double-stranded DNA, one strand shown; medium: in vitro; tested at: 2 µM; with: Cbf1 competitor, 0.05 µM; direction: higher = stronger binding; endpoint: fluorescence intensity; shared flanks, not repeated: … GTCTTGATTCGCTTGACGCTGCTG
Target: Phosphate system positive regulatory protein PHO4, full length, GST-tagged (PHO4, Saccharomyces cerevisiae, UniProt P07270, residues 1-312)
Notes: whole 60-bp probe, lowest competitor level
Residues (chain): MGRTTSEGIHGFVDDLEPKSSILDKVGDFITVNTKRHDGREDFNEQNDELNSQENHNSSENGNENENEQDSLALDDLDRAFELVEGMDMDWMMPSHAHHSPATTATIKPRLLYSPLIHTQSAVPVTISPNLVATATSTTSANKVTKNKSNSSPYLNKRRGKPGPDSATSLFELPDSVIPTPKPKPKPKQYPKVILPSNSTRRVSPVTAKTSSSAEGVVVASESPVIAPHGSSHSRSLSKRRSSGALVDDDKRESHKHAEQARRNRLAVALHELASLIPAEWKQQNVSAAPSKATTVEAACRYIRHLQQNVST
Oligonucleotide = TCAACTTGGGCAGCACACATGCAAAACATCACCCAA; result = 7200 a.u.
Oligonucleotide = CCTTGTTCCGGAGCGCACATGGCATTTCAAGGTCAA; result = 10100 a.u.
Oligonucleotide = CAATGTCCATTTTAGCACGTGGGACTTGTTCTGTGG; result = 17600 a.u.
Oligonucleotide = AAAGCGGTAATTTGCCGTGTGGGTGCAGATATCTAT; result = 5290 a.u.
Oligonucleotide = AGAAATTTTGGCCGCCATGTGGTCTTCTACAATTAT; result = 10200 a.u.
Oligonucleotide = GCGCAATACGTTAAGCTCGTGCTTTAGGTTTCGCCG; result = 11500 a.u.
Oligonucleotide = CGTCCTAGTGATTTTCACGTGTCATCCATGAGGAAG; result = 14400 a.u.
Oligonucleotide = GGTCGCACACACACCCCCGTGATGGGCGATATATAG; result = 9820 a.u.
Oligonucleotide = TCTGTATGGGTTTGTCATGCTGCTCTGGTCCCTTAT; result = 5200 a.u.
Oligonucleotide = TATTATATTCTCCATCACGTTATTGAATATTTCGTT; result = 9090 a.u.
Oligonucleotide = TTTGTCCTGAGCAATCACCTGATAGTAACGCACCAG; result = 4070 a.u.
Oligonucleotide = TGCGCAACAACTTGGCAAGTGGGTGTATGTCTAGAA; result = 4800 a.u.
Oligonucleotide = ACAACAAACAAAGGCAACGTGCAAAAAACAACCATC; result = 13800 a.u.
Oligonucleotide = AAAATCTGCGATTGTCATGCCTCCAAGACTGATGTT; result = 4160 a.u.
Oligonucleotide = CTTTCCCGATCTTGTCACAATACTTTAGCACATTTG; result = 4610 a.u.
Oligonucleotide = TGTGTCATTTCGACGTTCGTGATGGCAAAACGATGC; result = 6800 a.u.
Oligonucleotide = GCCGCTTCTTTATGCACCGTGGAGTAATTACCGAAT; result = 6150 a.u.
Oligonucleotide = AAACTGTCAAGGTTCCTCGTGACTCGGACGAATGTT; result = 8220 a.u.
Oligonucleotide = GAATGAGTTACTGGTCCCGTGAAGCGATTGACACAA; result = 4090 a.u.
Oligonucleotide = CTTCCTTCTTTGAAACACGTTTCTTAATTGCACTTG; result = 13300 a.u.
Oligonucleotide = CGTCCTAGTGATTGGGCAGTGGGTGCCATGAGGAAG; result = 7590 a.u.
Oligonucleotide = ACCAGAAAAAAAACACACGTGATGGCCACCAGGAGC; result = 15800 a.u.
Oligonucleotide = AAGAATTTTATATGGCTTGTGATGAGACTGACGTCC; result = 3300 a.u.
Oligonucleotide = GTCTTGTCTCATTGTGGCGTGGGTGTCCCCACTTCA; result = 7860 a.u.

For quick reference, copied from above (set 4):
Oligonucleotide = TATTATATTCTCCATCACGTTATTGAATATTTCGTT; result = 9090 a.u.
Oligonucleotide = TTTGTCCTGAGCAATCACCTGATAGTAACGCACCAG; result = 4070 a.u.
Oligonucleotide = TGCGCAACAACTTGGCAAGTGGGTGTATGTCTAGAA; result = 4800 a.u.
Oligonucleotide = ACAACAAACAAAGGCAACGTGCAAAAAACAACCATC; result = 13800 a.u.
Oligonucleotide = AAAATCTGCGATTGTCATGCCTCCAAGACTGATGTT; result = 4160 a.u.
